Assay results from different studies.
Numbered parts are unrelated; each lists some results of a single study.

Sample 1
Target: Eukaryotic initiation factor 4A-I (EIF4A1, Homo sapiens, UniProt P60842, residues 1-406, full length assumed)
Chain of UniProt P60842 (whole entry, looked up): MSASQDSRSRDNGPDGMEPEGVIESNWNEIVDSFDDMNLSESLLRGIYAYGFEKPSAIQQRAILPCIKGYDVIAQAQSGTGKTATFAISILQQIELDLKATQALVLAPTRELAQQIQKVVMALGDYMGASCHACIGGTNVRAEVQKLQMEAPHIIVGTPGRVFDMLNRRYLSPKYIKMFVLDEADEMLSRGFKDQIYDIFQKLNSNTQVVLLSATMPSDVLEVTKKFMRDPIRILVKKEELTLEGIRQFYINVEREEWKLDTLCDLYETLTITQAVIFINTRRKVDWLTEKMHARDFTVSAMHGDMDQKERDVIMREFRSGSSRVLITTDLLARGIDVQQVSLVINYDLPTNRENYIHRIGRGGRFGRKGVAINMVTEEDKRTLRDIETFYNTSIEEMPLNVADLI
Technique: RNA Bind-n-Seq
Molecule type: RNA
Matrix: in vitro
Concentration: 15 pmol
Notes: 4-mer, random 30-nt RNA, single round
Together with: 3 µM DMDA-PatA, 2 mM AMP-PNP
Baseline: input library
Reading: higher = stronger binding
Endpoint: 4-mer enrichment
Oligonucleotide = GUGC; value = 1.28 fold
Oligonucleotide = ACUU; value = 0.903 fold
Oligonucleotide = UUCC; value = 0.56 fold
Oligonucleotide = CAAG; value = 0.67 fold
Oligonucleotide = GUCC; value = 0.727 fold
Oligonucleotide = CAAA; value = 0.579 fold
Oligonucleotide = AGGU; value = 1.36 fold
Oligonucleotide = AACA; value = 0.47 fold
Oligonucleotide = GGAG; value = 1.17 fold
Oligonucleotide = AUUU; value = 1.06 fold
Oligonucleotide = CAGG; value = 0.635 fold
Oligonucleotide = UUGC; value = 0.976 fold
Oligonucleotide = GAGC; value = 1.02 fold
Oligonucleotide = CCGC; value = 0.487 fold
Oligonucleotide = AUGU; value = 1.43 fold
Oligonucleotide = UCAA; value = 0.493 fold
Oligonucleotide = CACA; value = 0.619 fold
Oligonucleotide = CCGU; value = 0.616 fold
Oligonucleotide = GACC; value = 0.432 fold
Oligonucleotide = ACCG; value = 0.543 fold
Oligonucleotide = UCGA; value = 1.29 fold
Oligonucleotide = GGUG; value = 1.58 fold

Sample 2
Target: RNA binding protein fox-1 homolog 2, RRM domain, GST-SBP tag (RBFOX2, Homo sapiens, UniProt O43251-10, residues 100-194)
Technique: RNA Bind-n-Seq
Molecule type: RNA
Matrix: in vitro
Concentration: 365 nM
Notes: natural RNA segment, single round, ends assumed
Baseline: no-protein control
Reading: higher = stronger binding
Endpoint: RBNS enrichment (R)
Shared flanks, not repeated: GGGAGUUCUACAGUCCGACGAUC … UGGAAUUCUCGGGUGCCAA
Residues (chain): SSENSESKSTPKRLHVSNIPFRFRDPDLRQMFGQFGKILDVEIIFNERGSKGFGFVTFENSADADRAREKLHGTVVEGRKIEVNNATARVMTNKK
Oligonucleotide = AGACCUCAGGGUGCCCAGGUCCUGCAUCUCUCUAUUGCCCCACUUCCUGCUAUAAUCCCUGAUGAAAACCUGACGGUGAACUCACUAAUAAACAAGACUGACUCCUUCUU; value = 0.56
Oligonucleotide = AGACUGAACUGUGCUCAGGGAUGAGCUUUGCUCAUUUUUGUAUCCUUCCGUUCUAGCCCAGUAUCCCACUUGGACCAGGUAGGCAGAUACUCAAUAAAUGCUUGUUCCAU; value = 0.205
Oligonucleotide = AAUAGAGCAUUGGGAAAACUCUGAAAGAGACUGACAUUUUUCUCAACAGGAAUCCAUACUUAACAGUUCUGGCUUUCAUUAAAUUUUGCUCUUUGGUACCUGGGCCUUUU; value = 0.342
Oligonucleotide = AGGAGCUGCUCUGCGCCAGGUGCCAAGGCUUCAGGCAGGCAGGCCCAGGAUGGGCGUUUGCUGCGCACAGACACUCAGCAGGGGCCUCGCAGAGAUGCGUGCAUCCAGCA; value = 0.554
Oligonucleotide = GGCUUAUUCUCUGCUCUAUAGUUGUGAAAUGAAGAGUAAAAACAAAUUUGUUUGACUAUUUUAAAAUUAUAUUAGACCUUAAGCUGUUUUAGCAAGCAUUAAAGCAAAUG; value = 0.456
Oligonucleotide = UGAAGAUUUUGAGGUUUUUAAUUUAAAGGCUGUGUACAGUUAUACUUUUUUAUACACCUGUUCAUUUCUACUUAAAUUAUGGCACAGAUUGAUGCGCACCAGUCUUGAGG; value = 0.724
Oligonucleotide = AUAUCUCCAAGUGGAAACGUGCUAACUUUCUGUAAAUCUUAAAUAAAAGGUGCUGUUCCUUCCUCUGACCCAGGACUGGUUUGUGUUUUCUGUCUUUCUUUCCAUUCCUU; value = 0.626
Oligonucleotide = UUUGUUAGCCACCUCCCCACCCACAUACAUUUCUGCCAGUGUUCACAAUGACACUCAGCGGUCAUGUCUGGACAUGAGUGCCCAGGGAAUAUGCCCAAGCUAUGCCUUGU; value = 0.254

Sample 3
Target: Fragile X messenger ribonucleoprotein 1, C-terminal low-complexity region (Fmr1, Mus musculus, UniProt P35922)
Technique: RNA Bind-n-Seq
Molecule type: RNA
Matrix: in vitro
Concentration: 200 nM
Notes: whole 134-nt RNA, ends assumed
Together with: 150 mM LiCl
Baseline: input library
Reading: higher = stronger binding
Endpoint: log2 enrichment
Library: 7-deaza-guanosine replaces G
Shared flanks, not repeated: GGGAGUUCUACAGUCCGACGAUC … UGGAAUUCUCGGGUGUCAAGG
Oligonucleotide = AGUCCUGUGCUACACAUCGUAUGUACCGAAUCAAACCCCCCCAAAUUUAAAUUUAAAAAAGUAUUAUGUUACGCCGUUCGGAUCUGCACU; value = 1.29
Oligonucleotide = CCUGUGCUACACAUCGUAUGUACCGAAUCGGGAAAAAAGGGGAAAAAAGGGGAAAAAAGGAAAGUAUUAUGUUACGCCGUUCGGAUCUGC; value = 0.355
Oligonucleotide = UCCUCAAGUCCUGUGCUACACAUCGUAUGUACCGAAUCGGGGUGGGUGGUGGAAAGUAUUAUGUUACGCCGUUCGGAUCUGCACUUCCAG; value = -0.193
Oligonucleotide = UAACUUUAGAGGAGGAUCUGAUGGAUAUGGCAGUGGACGUGGAUUUGGGCAUGGCUAUAAUGGGUAUGGAGGAGGACCUGGAGGUGGCAA; value = -0.593
Oligonucleotide = UUAUCUGUGGACUUCACCCAAAAGGAGUGGCAGCUACUGGAUCCCUCUCAGAAGAAUUUAUACAAGGAUGUGAUGUUGGAGAACUAUAGC; value = -1.4
Oligonucleotide = ACCAUGCAGGUGGGCAUCUUUGGGAAGUGGGGCAAGGGGGGGAUAGGGAGGGGGGUAACACUUUGGGAACGGGUGGUCCCAGGUCGUUUC; value = 1.41
Oligonucleotide = UCAAGUCCUGUGCUACACAUCGUAUGUACCGAAUCGGAAAAAGGAGGUUUUUGGAAAGUAUUAUGUUACGCCGUUCGGAUCUGCACUUCC; value = -0.853
Oligonucleotide = UGGCCCUGGUGGCAUGCGGGGAGGAAGAGGUGGCCUCAUGGAUCGUGGUGGUCCCGGUGGAAUGUUCAGAGGUGGCCGUGGUGGAGAGAG; value = 0.0255

Sample 4
Target: Histone acetyltransferase KAT6A, winged helix 1, GST fusion (KAT6A, Homo sapiens, UniProt Q92794, residues 1-85)
Technique: protein binding microarray
Molecule type: double-stranded DNA, one strand shown
Matrix: in vitro
Concentration: not given
Notes: 8-mer, flanks averaged, mean of 2 arrays, mostly near background
Baseline: not given
Reading: higher = stronger binding
Endpoint: E-score
Construct (chain): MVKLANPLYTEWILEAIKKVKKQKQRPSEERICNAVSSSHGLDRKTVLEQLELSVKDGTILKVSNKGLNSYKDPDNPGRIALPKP
Oligonucleotide = TCAGATCA; value = -0.136
Oligonucleotide = CAAGTCCA; value = -0.231
Oligonucleotide = ATCGGGTG; value = 0.177
Oligonucleotide = GACTAATC; value = 0.101
Oligonucleotide = AGGGACAT; value = -0.0454
Oligonucleotide = ATCGACCA; value = -0.181
Oligonucleotide = ATCTGGTA; value = -0.156
Oligonucleotide = CGGCCTTA; value = 0.236
Oligonucleotide = GCTTAACA; value = 0.0321
Oligonucleotide = CAGCTCGG; value = 0.0095
Oligonucleotide = GAAAGTGC; value = 0.0338
Oligonucleotide = CTATTGGA; value = -0.0479
Oligonucleotide = GGTGACAC; value = -0.0235
Oligonucleotide = ATGACAAA; value = -0.178
Oligonucleotide = AAGAACTC; value = -0.138
Oligonucleotide = CGAAGGGA; value = -0.0418
Oligonucleotide = TAAAACGA; value = -0.208
Oligonucleotide = CCGGGATC; value = 0.328
Oligonucleotide = CCGGCTGC; value = 0.167
Oligonucleotide = CAAAAGGC; value = 0.0699
Oligonucleotide = CCGTACAG; value = 0.223
Oligonucleotide = CACGACAG; value = -0.155
Oligonucleotide = AGTCAAAC; value = -0.1
Oligonucleotide = CCGCTTAC; value = 0.154
Oligonucleotide = GTTTGCAA; value = -0.16

Some of these lines once more (sample 4):
Oligonucleotide = ATCTGGTA; value = -0.156
Oligonucleotide = CACGACAG; value = -0.155
Oligonucleotide = ATCGGGTG; value = 0.177
Oligonucleotide = GACTAATC; value = 0.101
Oligonucleotide = CAAAAGGC; value = 0.0699
